Measurements collected from several papers.
Numbered parts are unrelated; each lists some results of a single study.

Series 1 — technique: protein-binding microarray; molecule type: double-stranded DNA, one strand shown; medium: in vitro; concentration: 250 nM; notes: 60-bp whole probe; with: salmon DNA 0.4 mg/ml; baseline: random background probes; direction: higher = stronger binding; quantity: log fluorescence; all sequences stand within: GCCTAGCAC … GTCTTGATTCGCTTGACGCTGCTG
Target: Interferon regulatory factor 7, full length, phosphomimetic (IRF7, Homo sapiens, UniProt Q92985, residues 1-503, S101K/S471D/S472D/S475D/S476D/S477D/S483D/S484D/S487D)
Construct (chain): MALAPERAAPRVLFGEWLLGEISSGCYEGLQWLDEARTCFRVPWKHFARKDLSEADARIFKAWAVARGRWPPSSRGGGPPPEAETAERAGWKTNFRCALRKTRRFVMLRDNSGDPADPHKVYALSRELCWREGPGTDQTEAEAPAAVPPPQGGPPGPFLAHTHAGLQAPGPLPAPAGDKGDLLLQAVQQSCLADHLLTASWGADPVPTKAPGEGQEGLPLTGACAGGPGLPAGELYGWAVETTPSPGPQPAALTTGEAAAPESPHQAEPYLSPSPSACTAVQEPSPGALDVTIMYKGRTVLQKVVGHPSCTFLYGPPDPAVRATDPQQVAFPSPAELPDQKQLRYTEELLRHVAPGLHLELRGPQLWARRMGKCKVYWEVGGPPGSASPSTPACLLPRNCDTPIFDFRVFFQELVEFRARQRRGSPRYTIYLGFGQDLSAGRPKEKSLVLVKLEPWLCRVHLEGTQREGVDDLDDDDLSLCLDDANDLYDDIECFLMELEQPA
GACGGACTGGAGACTGGGGACGTGCTA: -0.279 z-score
GACGGTCACGGTCTCGGGACGTGCTAG: -0.187 z-score
TACGATATCAGTCTCGAGACGTGCTAG: 0.735 z-score
GACGGTTTCGGTTTCGGGCCGTGCTAG: 13.6 z-score
TTAAATTTCAGTCTCGATTAGTGCTAG: 2.01 z-score
TTCTTTATGCACTCTCTACATGTGCTA: 0.656 z-score
TTAGGTCTCGGTCTCGGTCAGTGCTAG: 1.21 z-score
GACGGACTGGGGACTGGTGACGTGCTA: -0.784 z-score
TTTTTTATCAATCATTTTAGTGTGCTA: 1 z-score
GACGGAATGGACTTTCGGGACGTGCTA: -0.429 z-score
CAAGTTTGCCTCCTTCAGTCAGTGCTA: 0.149 z-score
TTAGATTTCGGACTGGATTAGTGCTAG: 0.417 z-score
GGGAAAATGGCTTTGCAGATGTGCTAG: -0.603 z-score
GACGAATTACCTCTGGAGCAGTGCTAG: -0.403 z-score
GACGGTATCGGACTGGGGGCGTGCTAG: 0.325 z-score

Series 2 — technique: RNA Bind-n-Seq; molecule type: RNA; medium: in vitro; concentration: 200 nM; notes: whole 134-nt RNA, ends assumed; with: 150 mM LiCl; baseline: input library; direction: higher = stronger binding; quantity: log2 enrichment; library: 7-deaza-guanosine replaces G
Target: Fragile X messenger ribonucleoprotein 1, C-terminal low-complexity region (Fmr1, Mus musculus, UniProt P35922)
All sequences stand within: GGGAGUUCUACAGUCCGACGAUC … UGGAAUUCUCGGGUGUCAAGG
GUCCUGUGCUACACAUCGUAUGUACCGAAUCGGGUUUUUUUGGGUUUGGGUUUUUGGGAAAGUAUUAUGUUACGCCGUUCGGAUCUGCAC: -1.55
GUCCUGUGCUACACAUCGUAUGUACCGAAUCGGAAAAAAGGAAAAAAGGGAAAAAAGGAAAGUAUUAUGUUACGCCGUUCGGAUCUGCAC: -0.621
CAAGUCCUGUGCUACACAUCGUAUGUACCGAAUCGGGAAAGGGAGGGAAAAAGGGAAAGUAUUAUGUUACGCCGUUCGGAUCUGCACUUC: -1.09
CACAGACAACACGCACCCACACAGACACAGAGGGAAGGGGUUGGGAUGGGGACAGGGUGCACAGCAGGGAGGGGUAGGACCCCAGCCCCU: 0.86
UGGCCCUGGUGGCAUGCGGGGAGGAAGAGGUGGCCUCAUGGAUCGUGGUGGUCCCGGUGGAAUGUUCAGAGGUGUCCGUGGUGGAGACAG: 0.0609
CCUGUGCUACACAUCGUAUGUACCGAAUCGGGGAAAAAGGGGUUUUUGGGGAAAAAGGGGAAAGUAUUAUGUUACGCCGUUCGGAUCUGC: -0.409
CCUCAAGUCCUGUGCUACACAUCGUAUGUACCGAAUCGGGAGGGAGGGGAGGAAAGUAUUAUGUUACGCCGUUCGGAUCUGCACUUCCAG: -0.945
UGGGAGGUGGAUUUUGUUUAUUUUUUUAGCUCAUUUCCAGGGGUGGGUAUUUUUUUUUAAUAUGUGUCAUGAAUAAAGUUGUUUUUGAAA: 0.578
UAACUUUAGAGGAGGAUCUGAUGGAUAUGGCAGUGGACGUGGAUUUGGGGAUGGCUAUAAUGGGAAUGGAGGAGGACCUGGAGGUGGCAA: 0.734
CACAGACAACACGCACCCACACAGACACAGAGGGAAGGGGUUGGGAUGGGGACAGGGUGCACAGCAGGGCGGGGUCGGACCCCAGCCCCU: 0.761
CACAGACAACACGCACCCACACAGACACAGAGGGAAGGGGUUGGGAUGAAAACAGGGUGCACAGCAGGGCGGGGUAGGACCCCAGCCCCU: 0.174

Series 3 — technique: universal PBM; molecule type: double-stranded DNA, one strand shown; medium: in vitro; concentration: not given; direction: higher = stronger binding; quantity: E-score
Target: Sal-like protein 4, full length isoform B (SALL4, Homo sapiens, UniProt Q9UJQ4-2, residues 1-616)
Notes: 8-mer, flanks averaged, mean of replicates
Residues (chain): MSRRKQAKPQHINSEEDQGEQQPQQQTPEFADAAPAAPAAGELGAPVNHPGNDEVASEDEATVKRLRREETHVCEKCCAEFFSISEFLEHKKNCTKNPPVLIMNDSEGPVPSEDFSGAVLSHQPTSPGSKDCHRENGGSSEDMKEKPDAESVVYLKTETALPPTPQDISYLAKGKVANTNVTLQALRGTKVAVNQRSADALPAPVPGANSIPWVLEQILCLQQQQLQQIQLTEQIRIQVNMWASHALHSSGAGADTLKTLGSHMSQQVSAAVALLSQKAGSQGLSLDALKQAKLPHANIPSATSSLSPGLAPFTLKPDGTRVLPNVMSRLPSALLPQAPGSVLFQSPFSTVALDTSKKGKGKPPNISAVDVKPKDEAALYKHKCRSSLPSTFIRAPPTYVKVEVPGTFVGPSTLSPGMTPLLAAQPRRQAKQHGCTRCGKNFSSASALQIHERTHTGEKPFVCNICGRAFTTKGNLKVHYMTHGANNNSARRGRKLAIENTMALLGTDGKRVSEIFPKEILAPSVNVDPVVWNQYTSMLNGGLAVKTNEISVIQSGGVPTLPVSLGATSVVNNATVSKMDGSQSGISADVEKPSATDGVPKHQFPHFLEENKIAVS
CACTATCG: -0.0381
GTCTCGTA: 0.0454
GGTCGGGA: -0.334
ACCGCAAC: -0.129
CTGGAAAA: 0.0693
GGATAATA: 0.344
TTCACAAA: 0.111
AGTATTAA: 0.355
CATGTGAA: -0.0314
GATTCCAC: 0.0398
CGCGGAAC: -0.252
GACATACC: -0.102
TATCTAAA: 0.245
AGCCGTAC: -0.12
AGATACAA: 0.29
AAGGACCA: -0.176
AACAGGGC: -0.2
AACAAAGT: 0.103
CCCACTCC: -0.179
GGTGCTAC: -0.128
CACCAGAG: -0.218
CCCAGCAC: -0.347

Series 4 — technique: Sort-seq; measured: YFP reporter; medium: E. coli; notes: PhoQ-PhoP variant library; with: 10 µM Mg2+; baseline: high Mg2+ state; direction: higher = stronger signaling; quantity: fold induction
Substance: PhoQ, residues 284 288 289 292 302 303 TNASYF
PhoP, residues 12 14 15 18 19 VHTVL (Escherichia coli, UniProt P23836): 8.24
PhoP, residues 12 14 15 18 19 ICWRQ (Escherichia coli, UniProt P23836): 4.12
PhoP, residues 12 14 15 18 19 TQCLL (Escherichia coli, UniProt P23836): 14.2
